Published values collected from several papers.
Lines come from different studies, so protocols differ.
fur full length assumed: fur full length assumed (Acidithiobacillus ferrooxidans, UniProt B7J425)
rpl-10a: rpl-10a 1-216 (Caenorhabditis elegans, UniProt Q9N4I4)
Chain of UniProt Q9N4I4 (whole entry, looked up): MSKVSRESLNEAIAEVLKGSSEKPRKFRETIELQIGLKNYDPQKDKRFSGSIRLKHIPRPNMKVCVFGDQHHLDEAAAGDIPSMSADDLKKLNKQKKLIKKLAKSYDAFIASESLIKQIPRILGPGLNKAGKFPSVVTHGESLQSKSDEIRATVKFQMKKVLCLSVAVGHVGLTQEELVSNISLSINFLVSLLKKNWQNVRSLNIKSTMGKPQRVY
B1: UGT1A9 (Homo sapiens, UniProt O60656); chain GKLLVVPMDGSHWFTMRSVVEKLILRGHEVVVVMPEVSWQLGRSLNCTVKTYSTSYTLEDLDREFKAFAHAQWKAQVRSIYSLLMGSYNDIFDLFFSNCRSLFKDKKLVEYLKESSFDAVFLDPFDNCGLIVAKYFSLPSVVFARGILCHYLEEGAQCPAPLSYVPRILLGFSDAMTFKERVRNHIMHLEEHLLCHRFFKNALEIASEILQTPVTEYDLYSHTSIWLLRTDFVLDYPKPVMPNMIFIGGINCHQGKPLPMEFEAYINASGEHGIVVFSLGSMVSEIPEKKAMAIADALGKIPQTVLWRYTGTRPSNLANNTILVKWLPQNDLLGHPMTRAFITHAGSHGVYESICNGVPMVMMPLFGDQMDNAKRMETKGAGVTLNVLEMTSEDLENALKAVINDKSYKENIMRLSSLHKDRPVEPLDLAVFWVEFVMRHKGAPHLRPAAHDLTWYQYHSLDVIGFLLAVVLTVAFITFKCCAYGYRKCLGKKGRVKKAHKSKTH
Chain of UniProt P75989 (whole entry, looked up): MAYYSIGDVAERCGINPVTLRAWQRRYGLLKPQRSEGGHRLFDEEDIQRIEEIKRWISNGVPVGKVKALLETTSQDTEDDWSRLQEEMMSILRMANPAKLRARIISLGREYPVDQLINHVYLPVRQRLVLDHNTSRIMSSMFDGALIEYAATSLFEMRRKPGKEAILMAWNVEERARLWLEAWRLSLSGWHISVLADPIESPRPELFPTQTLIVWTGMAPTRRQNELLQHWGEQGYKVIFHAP

| Substance | target or system | assay | test system | setting | endpoint | value |
| --- | --- | --- | --- | --- | --- | --- |
| DNA 1 CGAGGTATGGCACTGGCCGTCGTTTTCG / DNA 2 CGAAAACGACGGCCAGTGCCATAT (dsDNA; 4-nt 5' overhang, G-T mismatch) | POLG/POLG2 26-1239; 26-485 del43-52 (Homo sapiens) | cryo-EM | double-stranded DNA | with: dCTP | binding | binds |
| GGACGGCATTGGATCGAGGTTGAGTTGGTTGGACGGCTGCGAGGA (dsDNA) | POLG/POLG2 26-1239; 26-485 (Homo sapiens) | DLS | double-stranded DNA, one strand shown |  | binding | binds |
| B1 (UGT1A9) | COc1cc2ccc(=O)oc2cc1O | steady-state kinetics |  | pH 7.4, 37 °C | Vmax/Km | 192 µL/min/mg |
| ATGCATTAGCACTAATTGCAAAAAATTAATTTATCATTCTGTACACATATTTCGTACAAGTTTGCTATTGTTACTTCACTTAACATTGATTAACATTTTTAACAGAGGCGTAGCATGCATCAAAATTCAGTGACTTTAGATTCTGCGGGAGCAATCAC (dsDNA) | bluR 1-243 (Escherichia coli, UniProt P75989) | EMSA | double-stranded DNA, one strand shown | MgCl2 1 mM | binding | binds |
| ACGCAAGCGGTAACAAAGCGTACAAGATGTTCAGTCTCTTACAGGACGAAAAGATATAACCACATGATGATATTATAGTTATTCTTTGGCACCGTTATTGCTTGATGTGTCGTTGTTGCCGT (dsDNA) | fur full length assumed | EMSA | double-stranded DNA, one strand shown | supershift, with: Mn2+ 0.1 mM | binding | binds |
| GGGAGAUGAAAUAAUGAUAUGAGCUGGUAUAAUGUAACCAAUCGUGUCAUUUGGAUUUAUUUCUAUUGUUCUAUUUUCCAGACUGAAGCACAUUCCACGCCCAAACAUGAAGGUGUGCGUCUUCGGAGACCAGCACCAUCUUGACGAGGCUGCC (ssRNA) | rpl-10a | UV crosslinking |  |  | binding | binds weakly |
| TCTTTCCTTTCTGTGGATGCCGGAACAGGGAGCGTGGCAGACGAGACAGCTATGCCCGGAATCGCTTGATAAGTAACTTATCATATATGTAATTATTCTTGACAGATCCATTTCCTGCGCTACACTGAGATTGCAAATAAACATTACATTTCGTGTTTCATTCGGGGGTCTTTCATGTCCGGGACTTTGGCAGAAACGGAATACCAGGTCGCCTTGA (dsDNA) | fur full length assumed | EMSA | double-stranded DNA, one strand shown | supershift, with: Mn2+ 0.1 mM | binding | binds |
| TTGAAATGCATGCATTATTGTCTTTAAACAATTCAACACATCTTAATATATGTATAGGTTAATTGTATTAAACCAATGAATATATTTTTGCAGTGAATGTGATTATTGAATTAATTACGCCGTATTTTTTCTTTGTTTTTACCGATAACGGAAGTGTGCCGACGTA (dsDNA (Escherichia coli); blunt) | leuO fragment (Escherichia coli) | DNase I footprinting | double-stranded DNA, one strand shown |  | binding | binds |
| GGGAGAACCCACAGAAGGACAAGCGUUUCAGCGGAUCCAUCAGGUAGCUACGACCUGUGAAAACAGGGAGUUGGGACUUUCAAAGC (ssRNA) | rpl-10a | UV crosslinking |  |  | binding | binds weakly |

Some of these lines once more:
| Substance | target or system | assay | test system | setting | endpoint | value |
| --- | --- | --- | --- | --- | --- | --- |
| GGACGGCATTGGATCGAGGTTGAGTTGGTTGGACGGCTGCGAGGA (dsDNA) | POLG/POLG2 26-1239; 26-485 (Homo sapiens) | DLS | double-stranded DNA, one strand shown |  | binding | binds |
